Literature values that unrelated publications cite.
Each line is one published result; not all experiments were run side by side. ± gives the spread as reported.
UniProt Q9BZL6, sequence (whole entry, looked up): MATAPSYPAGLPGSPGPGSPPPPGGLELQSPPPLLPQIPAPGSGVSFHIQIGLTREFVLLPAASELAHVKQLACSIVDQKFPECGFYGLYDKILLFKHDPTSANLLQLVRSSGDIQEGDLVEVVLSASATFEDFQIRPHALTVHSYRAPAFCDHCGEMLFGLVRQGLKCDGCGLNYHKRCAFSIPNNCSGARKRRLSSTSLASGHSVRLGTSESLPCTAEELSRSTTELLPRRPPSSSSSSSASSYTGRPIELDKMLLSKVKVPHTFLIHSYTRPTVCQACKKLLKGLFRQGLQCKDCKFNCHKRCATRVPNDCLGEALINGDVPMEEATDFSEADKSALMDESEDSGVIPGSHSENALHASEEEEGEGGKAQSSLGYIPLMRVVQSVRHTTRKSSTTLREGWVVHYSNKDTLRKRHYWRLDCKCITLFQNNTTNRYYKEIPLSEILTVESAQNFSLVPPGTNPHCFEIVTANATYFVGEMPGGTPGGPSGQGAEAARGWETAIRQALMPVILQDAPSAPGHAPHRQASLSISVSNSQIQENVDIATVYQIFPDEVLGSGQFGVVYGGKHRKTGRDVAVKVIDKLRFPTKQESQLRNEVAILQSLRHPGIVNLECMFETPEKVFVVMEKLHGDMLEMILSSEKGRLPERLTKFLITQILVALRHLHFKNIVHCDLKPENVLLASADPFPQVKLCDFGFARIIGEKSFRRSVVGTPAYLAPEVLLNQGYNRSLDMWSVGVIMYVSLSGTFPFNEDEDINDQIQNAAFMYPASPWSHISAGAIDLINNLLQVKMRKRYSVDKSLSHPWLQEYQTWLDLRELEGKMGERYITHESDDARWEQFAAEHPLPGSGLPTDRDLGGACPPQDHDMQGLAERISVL

Compound | tested on | assay | system | conditions | how to read | quantity | result
CN(C)CCC=C1c2ccccc2CCc2ccccc21 | 5-HT4 receptor | – | – | – | – | IC50 | 7.31 nM
CC(C)(C)c1ccc(NC(=O)c2ccc(-c3ncccc3C(F)(F)F)cc2)cc1 | TRPV1 | calcium flux, antagonist | HEK293 | with: capsaicin | – | IC50 | 6 nM
CN(CCN)Cc1csc(-c2ccc(C(=N)N)nc2)n1 | PRMT3 | – | – | – | – | IC50 | 57600 nM
Nc1cc(C(F)(F)F)c(-c2nc(N3CCOCC3)nc(N3CCOCC3)n2)cn1 | Serine/threonine-protein kinase D2 (PRKD2, Homo sapiens, UniProt Q9BZL6) | enzyme activity | – | 10 µM | baseline: untreated | remaining activity | 90%
CNC(C)C1CCC(N)C(OC2C(N)CC(N)C(OC3OCC(C)(O)C(NC)C3O)C2O)O1 (centres unmarked) | Escherichia coli | – | clinical isolate RKI-No_524/16 | – | – | MIC | ≤ 0.5 µg/mL
NC(=O)C(NC1CCC(c2c[nH]c3ccccc23)CC1)C1CCN(C(=O)/C=C/c2ccc3c(c2)OCCO3)CC1 (centres unmarked) | CCR2 | – | – | 3D-QSAR training set | – | IC50 | 602 nM
CCCCCOC(=O)/C=C/c1ccc(O)c(O)c1 | xanthine oxidase | inhibitor | – | – | – | IC50 | 18000 ± 900 nM
COc1ccc(CNc2c(CO)cnc3c(C4CC4)cc(C#N)cc23)cc1Cl | PDE7 | inhibitor | – | – | – | IC50 | > 10000 nM
O=c1[nH]nc(OCCCc2ccc(Cl)cc2)c(NCc2cccnc2)c1Br | PDE3 | enzyme activity, inhibitor | – | – | – | IC50 | 0.26 nM
O=C(NCc1ccc(Cl)c(Cl)c1)Nc1cccc2ccc(O)cc12 | TRPV1 | calcium flux, antagonist | HEK293 | with: capsaicin | – | IC50 | 15 nM
COc1cc2c(Nc3ccc(Cl)c(Cl)c3F)ncnc2cc1OC[C@@H]1C[C@@H]2CN(C)C[C@@H]2C1 | EGFR wild type | – | – | – | – | IC50 | 0.3 nM
C[C@H](NC(=O)[C@H](CC(=O)NCC(C)(C)C)NC(=O)c1ccc(C(=O)NO)cc1)C(=O)NCc1ccccc1 | proteasome | chymotrypsin-like activity, inhibitor | HL-60 | – | – | IC50 | 260 nM
CN(C)CCCN1c2ccccc2CCc2ccccc21 | sigma-1 receptor | – | – | literature value | – | IC50 | 300 nM
CC(C)Nc1nc(Nc2ccc(C(F)(F)F)cc2)c2nc(Nc3c(Cl)cccc3Cl)sc2n1 | TRPV1 | calcium flux, antagonist | HEK293 | with: capsaicin | – | IC50 | 13 nM
CC(C)(C)c1ccc(C2=NC(=Cc3cccs3)C(=O)O2)cc1 | pendrin | inhibitor | – | concentration not given | – | IC50 | 4700 nM
CC(C)(C)c1ccc(NC(=O)c2ccc(-c3ncccc3[N+](=O)[O-])cc2)cc1 | TRPV1 | calcium flux, antagonist | HEK293 | with: capsaicin | – | IC50 | 5 nM
COCCNc1nc2ccc(C#CC3(O)CCCCC3)cc2n1-c1ccnc(N)n1 | PAK5 | inhibitor | – | – | – | IC50 | 126 nM
CC(C)C(=O)Nc1nc(-c2ccc(O)cc2O)cs1 | Agaricus bisporus tyrosinase | inhibitor | – | – | – | IC50 | ~108000 nM
CCN(CC)CCCCNc1ncc2cc(-c3cc(OC)cc(OC)c3)c(NC(=O)NC(C)(C)C)nc2n1 | MEK | inhibitor | – | – | – | IC50 | > 50000 nM
O=C(CCc1ccc(C(F)(F)F)cc1)Nc1cccc2cnccc12 | TRPV1 | calcium flux, antagonist | HEK293 | with: capsaicin | – | IC50 | 38 nM
CCC(=O)NS(=O)(=O)c1ccc(-c2c(-c3ccccc3)noc2C)cc1 | NR4A2 (Nurr1) | inverse agonist, cellular | – | – | – | IC50 | 13400 ± 300 nM
CC1(C)S[C@@H]2[C@H](NC(=O)[C@H](N)c3ccccc3)C(=O)N2[C@H]1C(=O)O | Escherichia coli | – | clinical isolate RKI-No_525/16 | – | – | MIC | ≤ 4 µg/mL
O=C(NCc1ccc(Cl)c(C(F)(F)F)c1)Nc1cccc2cnccc12 | TRPV1 | calcium flux, antagonist | HEK293 | with: capsaicin | – | IC50 | 6 nM
COc1ccc2cc3[n+](cc2c1OC)CCc1cc2c(cc1-3)OCO2 | PTP1B | – | – | – | – | IC50 | ~22000 nM
O=C(NCCc1ccc(OC(F)(F)F)cc1)Nc1cccc2cnccc12 | TRPV1 | calcium flux, antagonist | HEK293 | with: capsaicin | – | IC50 | 11 nM
CO[C@@H]1COCC[C@@H]1N[C@@H]1C[C@H]2CCC[C@@]2(C(=O)N2C[C@@H]3C[C@H]2CN3c2cccc(OC(F)(F)F)c2)C1 | CCR2 | – | – | 3D-QSAR training set | – | IC50 | 148 nM

A few entries again:
Compound | tested on | assay | system | conditions | how to read | quantity | result
O=C(NCc1ccc(Cl)c(Cl)c1)Nc1cccc2ccc(O)cc12 | TRPV1 | calcium flux, antagonist | HEK293 | with: capsaicin | – | IC50 | 15 nM
COc1cc2c(Nc3ccc(Cl)c(Cl)c3F)ncnc2cc1OC[C@@H]1C[C@@H]2CN(C)C[C@@H]2C1 | EGFR wild type | – | – | – | – | IC50 | 0.3 nM
C[C@H](NC(=O)[C@H](CC(=O)NCC(C)(C)C)NC(=O)c1ccc(C(=O)NO)cc1)C(=O)NCc1ccccc1 | proteasome | chymotrypsin-like activity, inhibitor | HL-60 | – | – | IC50 | 260 nM
CN(C)CCCN1c2ccccc2CCc2ccccc21 | sigma-1 receptor | – | – | literature value | – | IC50 | 300 nM
